Assay results of several laboratories.
Lines come from different studies, so protocols differ. Numbers after ± are the reported error.

SMILES | system | conditions | how to read | endpoint | result
CC[C@H]1c2cc3[nH]c4c(c3C)C(=O)[C@H](C(=O)OC)c4c3nc(cc4[nH]c(cc(n2)[C@@H]1C)c(C(C)=O)c4C)[C@@H](C)[C@@H]3CCC(=O)NCC(=O)N[C@H](CC(=O)O)C(=O)N[C@H](CCC(=O)O)C(=O)N[C@@H](C(=O)N[C@H](CC(=O)O)C(=O)NCC(=O)N[C@H](CO)C(=O)NCC(=O)N[C@H](CCCCN)C(N)=O)C(C)C | nude mouse HT-1080 xenograft | intravenous, 25 nmol, low folate receptor |  | time to strong tumour fluorescence | 5 h
N=C(N)NCCC[C@@H]1NC(=O)[C@H](CCCCNC(=O)CCOCCOCCOCCOCCNC(=O)CC[C@H](NC(=O)CCOCCOCCOCCOCCNC(=O)CC[C@H](NC(=O)CN2CCN(CC(=O)O)CCN(CC(=O)O)CCN(CC(=O)O)CC2)C(=O)NCCOCCOCCOCCOCCC(=O)N[C@@H](CCC(=O)NCCOCCOCCOCCOCCC(=O)NCCCC[C@@H]2NC(=O)[C@@H](Cc3ccccc3)NC(=O)[C@H](CC(=O)O)NC(=O)CNC(=O)[C@H](CCCNC(=N)N)NC2=O)C(=O)NCCOCCOCCOCCOCCC(=O)NCCCC[C@@H]2NC(=O)[C@@H](Cc3ccccc3)NC(=O)[C@H](CC(=O)O)NC(=O)CNC(=O)[C@H](CCCNC(=N)N)NC2=O)C(=O)NCCOCCOCCOCCOCCC(=O)NCCCC[C@@H]2NC(=O)[C@@H](Cc3ccccc3)NC(=O)[C@H](CC(=O)O)NC(=O)CNC(=O)[C@H](CCCNC(=N)N)NC2=O)NC(=O)[C@@H](Cc2ccccc2)NC(=O)[C@H](CC(=O)O)NC(=O)CNC1=O [indium-111 labelled] | female athymic nude mice, spleen | intravenous, 3 µCi, 0.5 h, U-87 MG glioma xenograft |  | tissue uptake | 2.69 ± 0.63 %ID/g
CCCC[C@H](NC(=O)CNC(=O)CNC(=O)c1ccc(NN)nc1)C(=O)N[C@H]1CC(=O)NCCCC[C@@H](C(N)=O)NC(=O)[C@H](Cc2c[nH]c3ccccc23)NC(=O)[C@H](CCCNC(=N)N)NC(=O)[C@@H](Cc2ccccc2)NC(=O)[C@H](Cc2c[nH]cn2)NC1=O [technetium-99m labelled] | C57 mouse, B16/F1 melanoma | 2 h, with: L-lysine | relative to: tumour over lung | uptake ratio | 82.9
N=C(N)NCCC[C@@H]1NC(=O)[C@H](CCCCNC(=O)CCOCCOCCOCCOCCNC(=O)CC[C@H](NC(=O)CCOCCOCCOCCOCCNC(=O)c2ccc(NN)nc2)C(=O)NCCOCCOCCOCCOCCC(=O)NCCCC[C@@H]2NC(=O)[C@@H](Cc3ccccc3)NC(=O)[C@H](CC(=O)O)NC(=O)CNC(=O)[C@H](CCCNC(=N)N)NC2=O)NC(=O)[C@@H](Cc2ccccc2)NC(=O)[C@H](CC(=O)O)NC(=O)CNC1=O [technetium-99m labelled] | female athymic nude mice, U-87 MG glioma xenograft, tumour and liver | intravenous, 2.5 µCi, 60 min | relative to: tumour over liver | tissue-to-tissue ratio | 5.14 ± 1.46
CC(C)C[C@H](NC(=O)[C@@H]1CCCN1C(=O)[C@H](CCCCN)NC(=O)[C@@H](N)CO)C(=O)N1CCC[C@H]1C(=O)N[C@@H](CCC(=O)O)C(=O)N[C@H](C(=O)N[C@H](C(=O)N[C@@H](CC(=O)O)C(=O)N[C@@H](CCC(=O)O)C(=O)N[C@@H](Cc1ccc(O)cc1)C(=O)N[C@@H](Cc1cn(CCOCCOCCOCCNC(=O)CCc2ccc(O)c(CN(CCN(CC(=O)O)Cc3cc(CCC(=O)NCCCC[C@H](NC(=O)N[C@@H](CCC(=O)O)C(=O)O)C(=O)O)ccc3O)CC(=O)O)c2)nn1)C(=O)O)[C@@H](C)O)C(C)C [gallium-68 labelled] | NMRI nu/nu mice, LNCaP tumour, pancreas | 10 MBq, high molar activity |  | standardized uptake value | 0.23 g/g
CSCC[C@H](NC(=O)[C@H](CC(C)C)NC(=O)[C@H](Cc1c[nH]cn1)NC(=O)CNC(=O)[C@@H](NC(=O)[C@H](C)NC(=O)[C@H](Cc1c[nH]c2ccccc12)NC(=O)[C@H](CCC(N)=O)NC(=O)CCCCCNC(=O)CNC(=O)CNC(=O)CNC(=O)CSC(C)=O)C(C)C)C(N)=O [technetium-99m labelled] | nude mouse, PC-3 xenograft, tumor | 90 min, with: excess unlabelled conjugate |  | tissue uptake | 0.16 ± 0.02 %ID/g
CCCC[C@H](NC(=O)CNC(=O)[C@H](CO)NC(=O)CNC(=O)c1ccc(NN)nc1)C(=O)N[C@H]1CC(=O)NCCCC[C@@H](C(N)=O)NC(=O)[C@H](Cc2c[nH]c3ccccc23)NC(=O)[C@H](CCCNC(=N)N)NC(=O)[C@@H](Cc2ccccc2)NC(=O)[C@H](Cc2c[nH]cn2)NC1=O [technetium-99m labelled] | C57 mouse, B16/F1 melanoma | 2 h | relative to: tumour over kidney | uptake ratio | 1.9
N=C(N)NCCC[C@@H]1NC(=O)[C@H](CCCCNC(=O)CCOCCOCCOCCOCCNC(=O)CN2CCN(CC(=O)O)CCN(CC(=O)O)CCN(CC(=O)O)CC2)NC(=O)[C@@H](Cc2ccccc2)NC(=O)[C@H](CC(=O)O)NC(=O)CNC1=O [indium-111 labelled] | female athymic nude mice, lungs | intravenous, 3 µCi, 0.5 h, U-87 MG glioma xenograft |  | tissue uptake | 4.6 ± 0.39 %ID/g
CCCC[C@H](NC(=O)CNC(=O)CNC(=O)CNC(=O)c1ccc(NN)nc1)C(=O)N[C@H]1CC(=O)NCCCC[C@@H](C(N)=O)NC(=O)[C@H](Cc2c[nH]c3ccccc23)NC(=O)[C@H](CCCNC(=N)N)NC(=O)[C@@H](Cc2ccccc2)NC(=O)[C@H](Cc2c[nH]cn2)NC1=O [technetium-99m labelled] | C57 mouse, B16/F1 melanoma, pancreas | intravenous, 2 h |  | uptake | 0.02 ± 0.01 %ID/g
N=C(N)NCCC[C@@H]1NC(=O)[C@H](CCCCNC(=O)CNC(=O)CNC(=O)CNC(=O)CC[C@H](NC(=O)CCOCCOCCOCCOCCNC(=O)CC[C@H](NC(=O)CN2CCN(CC(=O)O)CCN(CC(=O)O)CCN(CC(=O)O)CC2)C(=O)NCCOCCOCCOCCOCCC(=O)N[C@@H](CCC(=O)NCC(=O)NCC(=O)NCC(=O)NCCCC[C@@H]2NC(=O)[C@@H](Cc3ccccc3)NC(=O)[C@H](CC(=O)O)NC(=O)CNC(=O)[C@H](CCCNC(=N)N)NC2=O)C(=O)NCC(=O)NCC(=O)NCC(=O)NCCCC[C@@H]2NC(=O)[C@@H](Cc3ccccc3)NC(=O)[C@H](CC(=O)O)NC(=O)CNC(=O)[C@H](CCCNC(=N)N)NC2=O)C(=O)NCC(=O)NCC(=O)NCC(=O)NCCCC[C@@H]2NC(=O)[C@@H](Cc3ccccc3)NC(=O)[C@H](CC(=O)O)NC(=O)CNC(=O)[C@H](CCCNC(=N)N)NC2=O)NC(=O)[C@@H](Cc2ccccc2)NC(=O)[C@H](CC(=O)O)NC(=O)CNC1=O [indium-111 labelled] | female athymic nude mice, heart | intravenous, 3 µCi, 4 h, U-87 MG glioma xenograft |  | tissue uptake | 0.57 ± 0.06 %ID/g
